Earlier results, collected from citations in different studies.
Compare with care: the assays were run in different laboratories.
Organism: Plasmodium falciparum

Structure (SMILES) = CC(C)(C)NCc1ccc(Nc2ccnc3cc(Cl)ccc23)cc1O; test = parasite growth; test system = 3D7; conditions = literature value; quantity = IC50; result = 11.2 nM
Structure (SMILES) = Cc1nc(C)c(-c2ccc(Oc3ccc(OC(F)(F)F)cc3)cc2)c(OC(=O)N(CCNC(C)C)C(C)C)c1Br; test = whole cell extended time; test system = 3D7; conditions = 72 h; quantity = IC50; result = 170 nM
Structure (SMILES) = Cc1cc(Nc2ccc(S(F)(F)(F)(F)F)cc2)n2nc(C(C)(F)F)nc2n1; test system = 3D7^0087/N9, humanized SCID mouse, blood; conditions = dose not given; quantity = average blood concentration for ED90; result = 1500 nM
Structure (SMILES) = COc1cc(/C=C/C(=O)CC(=O)/C=C/c2ccc(O)c(OC)c2)ccc1O; test = parasite growth; test system = chloroquine-resistant; quantity = IC50; result = ~5000 nM
Structure (SMILES) = Cc1cc(O)cc2c(C3CCN(CC4CCN(C(=O)/C=C/c5ccc(Cl)c(Cl)c5)CC4)CC3)c[nH]c12; test = whole cell extended time; test system = 3D7; conditions = 72 h; quantity = IC50; result = 1090 nM
Structure (SMILES) = C/C=C1\NC(=O)[C@H]2CSSCC/C=C/[C@H](CC(=O)N[C@H](C(C)C)C(=O)N2)OC(=O)[C@H](C(C)C)NC1=O; scale = relative to: IC50 Dd2 over IC50 3D7; quantity = resistance index; result = 1.1
Structure (SMILES) = N/C(CC(O)c1cc2c(F)cc(F)cc2c2cc(C(F)(F)F)ccc12)=N\c1ccc(F)cc1 (stereo not drawn); test = cell growth; test system = Dd2 T648M mutant; quantity = IC50; result = 13 nM
Structure (SMILES) = Cc1c(C2(c3ccc(C(F)(F)F)nc3)CC2)c[nH]c1C(=O)N[C@H](C)c1nc[nH]n1; test system = 3D7^0087/N9, humanized SCID mouse, plasma; quantity = unbound plasma concentration for ED90; result = 170 nM
Structure (SMILES) = CNCCCN(C)C(=O)Oc1c(Br)c(C)nc(C)c1-c1ccc(Oc2ccc(OC(F)(F)F)cc2)cc1; test = whole cell extended time; test system = 3D7; conditions = 72 h; quantity = IC50; result = 390 nM
Structure (SMILES) = O=C(NCCN1CCCC1)c1cc(-c2ccc(CN3CCOCC3)cc2)nc2ccc(F)cc12; test system = 7G8 S474R mutant; scale = relative to: parental strain; quantity = IC50 fold increase; result = 35 fold
Structure (SMILES) = CNCCN(C)C(=O)Oc1c(Cl)c(C)nc(C)c1-c1ccc(Oc2ccc(OC(F)(F)F)cc2)cc1; test = whole cell extended time; test system = 3D7; conditions = 72 h; quantity = IC50; result = 130 nM
Structure (SMILES) = c1ccc2c(c1)[I+]c1ccccc1-2; quantity = EC50; result = 0.06 nM

For quick reference, copied from above:
Structure (SMILES) = Cc1c(C2(c3ccc(C(F)(F)F)nc3)CC2)c[nH]c1C(=O)N[C@H](C)c1nc[nH]n1; test system = 3D7^0087/N9, humanized SCID mouse, plasma; quantity = unbound plasma concentration for ED90; result = 170 nM
Structure (SMILES) = CNCCCN(C)C(=O)Oc1c(Br)c(C)nc(C)c1-c1ccc(Oc2ccc(OC(F)(F)F)cc2)cc1; test = whole cell extended time; test system = 3D7; conditions = 72 h; quantity = IC50; result = 390 nM
